Published values pooled from the literature.
Protocols differ between the studies behind these lines. ± gives the spread as reported.
AVPR1A: Vasopressin V1a receptor (AVPR1A, Homo sapiens, UniProt P37288)
Sequence of UniProt P37288 (whole entry, looked up): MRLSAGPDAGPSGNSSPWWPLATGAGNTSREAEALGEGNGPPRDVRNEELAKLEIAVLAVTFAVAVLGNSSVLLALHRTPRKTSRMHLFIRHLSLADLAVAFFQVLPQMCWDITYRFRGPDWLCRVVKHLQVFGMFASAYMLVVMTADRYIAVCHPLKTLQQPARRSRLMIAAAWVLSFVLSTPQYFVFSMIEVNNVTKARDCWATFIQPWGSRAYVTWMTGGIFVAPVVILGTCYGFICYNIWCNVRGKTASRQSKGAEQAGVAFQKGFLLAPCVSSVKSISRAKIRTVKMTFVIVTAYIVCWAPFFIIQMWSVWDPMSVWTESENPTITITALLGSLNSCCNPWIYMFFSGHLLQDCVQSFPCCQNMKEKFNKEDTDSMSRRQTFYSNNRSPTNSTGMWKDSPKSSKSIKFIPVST
MAPK14: Mitogen-activated protein kinase 14 (MAPK14, Homo sapiens, UniProt Q16539)
Sequence of UniProt Q16539 (whole entry, looked up): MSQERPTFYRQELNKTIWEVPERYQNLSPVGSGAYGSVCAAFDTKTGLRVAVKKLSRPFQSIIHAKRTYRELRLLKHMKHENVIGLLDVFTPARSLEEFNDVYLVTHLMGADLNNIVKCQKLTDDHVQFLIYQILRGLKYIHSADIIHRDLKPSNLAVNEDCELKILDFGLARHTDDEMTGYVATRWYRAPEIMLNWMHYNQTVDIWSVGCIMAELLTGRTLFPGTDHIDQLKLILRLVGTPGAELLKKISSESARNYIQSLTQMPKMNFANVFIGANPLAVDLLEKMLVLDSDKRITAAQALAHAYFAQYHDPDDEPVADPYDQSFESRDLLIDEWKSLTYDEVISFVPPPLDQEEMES
Seed linoleate 13S-lipoxygenase-1: Seed linoleate 13S-lipoxygenase-1 (Glycine max, UniProt P08170)
Sequence of UniProt P08170 (whole entry, looked up): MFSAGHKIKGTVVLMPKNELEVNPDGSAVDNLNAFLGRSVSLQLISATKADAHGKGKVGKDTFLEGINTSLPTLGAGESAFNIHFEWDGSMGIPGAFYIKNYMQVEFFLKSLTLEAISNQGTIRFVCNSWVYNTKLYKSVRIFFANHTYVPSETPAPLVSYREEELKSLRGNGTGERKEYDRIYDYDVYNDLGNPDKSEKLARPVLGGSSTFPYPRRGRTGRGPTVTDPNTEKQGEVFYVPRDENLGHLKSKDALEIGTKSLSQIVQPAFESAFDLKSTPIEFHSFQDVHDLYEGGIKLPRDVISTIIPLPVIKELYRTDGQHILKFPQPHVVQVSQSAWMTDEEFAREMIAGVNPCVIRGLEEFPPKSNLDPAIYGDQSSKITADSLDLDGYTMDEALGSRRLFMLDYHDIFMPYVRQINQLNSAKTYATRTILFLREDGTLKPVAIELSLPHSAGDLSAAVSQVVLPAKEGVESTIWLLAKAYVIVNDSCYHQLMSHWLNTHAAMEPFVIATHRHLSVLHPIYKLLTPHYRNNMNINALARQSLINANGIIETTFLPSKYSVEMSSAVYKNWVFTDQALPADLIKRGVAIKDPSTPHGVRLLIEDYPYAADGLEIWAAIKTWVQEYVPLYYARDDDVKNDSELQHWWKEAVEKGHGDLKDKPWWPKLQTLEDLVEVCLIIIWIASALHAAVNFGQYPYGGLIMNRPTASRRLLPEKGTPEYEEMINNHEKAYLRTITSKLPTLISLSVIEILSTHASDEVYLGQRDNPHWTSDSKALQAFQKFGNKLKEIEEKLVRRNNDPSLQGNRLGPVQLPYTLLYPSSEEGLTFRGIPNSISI
Sequence of UniProt O60840 (whole entry, unmodified, looked up): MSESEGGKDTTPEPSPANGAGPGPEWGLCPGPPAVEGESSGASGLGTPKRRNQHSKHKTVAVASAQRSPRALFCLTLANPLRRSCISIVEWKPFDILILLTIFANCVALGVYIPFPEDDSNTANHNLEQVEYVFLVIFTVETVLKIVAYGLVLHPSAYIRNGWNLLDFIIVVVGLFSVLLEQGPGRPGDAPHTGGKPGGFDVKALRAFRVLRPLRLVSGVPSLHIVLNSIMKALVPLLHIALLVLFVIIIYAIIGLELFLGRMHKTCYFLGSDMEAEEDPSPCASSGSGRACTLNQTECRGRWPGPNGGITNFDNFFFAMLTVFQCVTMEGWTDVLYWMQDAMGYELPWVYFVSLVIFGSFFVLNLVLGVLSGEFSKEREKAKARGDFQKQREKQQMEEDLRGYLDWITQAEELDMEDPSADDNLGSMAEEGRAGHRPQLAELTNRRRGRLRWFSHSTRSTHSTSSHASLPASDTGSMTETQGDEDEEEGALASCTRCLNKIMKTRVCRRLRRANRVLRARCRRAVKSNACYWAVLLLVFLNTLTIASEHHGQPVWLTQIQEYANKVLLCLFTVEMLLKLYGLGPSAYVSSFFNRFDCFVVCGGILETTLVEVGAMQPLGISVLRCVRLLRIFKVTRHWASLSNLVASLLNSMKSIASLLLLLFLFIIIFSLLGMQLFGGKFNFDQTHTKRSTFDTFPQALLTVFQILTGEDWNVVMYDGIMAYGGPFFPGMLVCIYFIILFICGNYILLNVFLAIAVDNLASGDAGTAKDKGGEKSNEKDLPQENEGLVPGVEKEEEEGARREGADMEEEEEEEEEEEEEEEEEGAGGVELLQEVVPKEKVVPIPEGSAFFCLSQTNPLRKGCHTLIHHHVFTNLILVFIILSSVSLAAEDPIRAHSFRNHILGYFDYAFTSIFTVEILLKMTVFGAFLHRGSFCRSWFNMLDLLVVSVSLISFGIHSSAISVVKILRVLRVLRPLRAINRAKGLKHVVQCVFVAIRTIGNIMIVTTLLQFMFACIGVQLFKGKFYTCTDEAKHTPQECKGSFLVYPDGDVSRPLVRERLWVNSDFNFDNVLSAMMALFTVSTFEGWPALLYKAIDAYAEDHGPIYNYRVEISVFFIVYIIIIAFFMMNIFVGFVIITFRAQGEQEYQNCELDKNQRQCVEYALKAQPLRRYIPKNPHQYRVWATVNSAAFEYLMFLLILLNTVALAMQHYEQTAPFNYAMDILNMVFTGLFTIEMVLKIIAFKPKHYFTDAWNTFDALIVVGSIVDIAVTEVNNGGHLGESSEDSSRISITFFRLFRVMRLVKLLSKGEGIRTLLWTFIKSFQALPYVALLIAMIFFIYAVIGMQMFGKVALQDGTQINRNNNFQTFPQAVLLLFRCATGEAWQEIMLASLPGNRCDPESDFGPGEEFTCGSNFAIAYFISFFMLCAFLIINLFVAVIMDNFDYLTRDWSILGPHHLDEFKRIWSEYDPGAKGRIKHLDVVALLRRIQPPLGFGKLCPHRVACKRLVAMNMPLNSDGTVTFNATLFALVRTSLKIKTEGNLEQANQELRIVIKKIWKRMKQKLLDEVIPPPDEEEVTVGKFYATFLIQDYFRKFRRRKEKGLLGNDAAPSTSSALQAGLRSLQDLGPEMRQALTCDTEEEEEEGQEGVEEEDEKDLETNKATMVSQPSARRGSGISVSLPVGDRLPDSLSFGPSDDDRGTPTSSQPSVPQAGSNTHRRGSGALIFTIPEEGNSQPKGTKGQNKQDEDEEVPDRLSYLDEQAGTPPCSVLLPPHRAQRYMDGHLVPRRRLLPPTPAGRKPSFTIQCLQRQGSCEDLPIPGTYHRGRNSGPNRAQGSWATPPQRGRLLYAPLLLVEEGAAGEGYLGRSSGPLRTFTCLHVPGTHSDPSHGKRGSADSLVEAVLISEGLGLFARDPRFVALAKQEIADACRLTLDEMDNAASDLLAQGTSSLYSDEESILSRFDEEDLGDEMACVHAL
Sequence of UniProt P48740 (whole entry, looked up): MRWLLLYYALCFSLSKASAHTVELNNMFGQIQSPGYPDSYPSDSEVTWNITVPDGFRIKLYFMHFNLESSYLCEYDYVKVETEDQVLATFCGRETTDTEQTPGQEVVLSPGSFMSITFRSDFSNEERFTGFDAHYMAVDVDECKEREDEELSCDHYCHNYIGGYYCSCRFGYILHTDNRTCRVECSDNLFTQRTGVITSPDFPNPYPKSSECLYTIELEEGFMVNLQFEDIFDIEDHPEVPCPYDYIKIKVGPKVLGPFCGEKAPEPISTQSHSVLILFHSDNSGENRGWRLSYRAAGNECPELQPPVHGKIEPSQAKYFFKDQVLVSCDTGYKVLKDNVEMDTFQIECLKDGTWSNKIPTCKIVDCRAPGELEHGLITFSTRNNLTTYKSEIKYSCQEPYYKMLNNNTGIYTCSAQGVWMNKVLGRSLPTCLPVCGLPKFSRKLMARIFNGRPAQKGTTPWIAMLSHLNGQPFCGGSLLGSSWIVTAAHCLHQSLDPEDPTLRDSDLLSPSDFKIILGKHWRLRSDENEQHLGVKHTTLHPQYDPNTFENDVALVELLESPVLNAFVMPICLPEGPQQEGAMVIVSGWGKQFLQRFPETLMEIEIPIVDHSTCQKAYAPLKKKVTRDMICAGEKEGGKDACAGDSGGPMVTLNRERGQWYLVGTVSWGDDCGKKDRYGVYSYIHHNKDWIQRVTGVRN
Sequence of UniProt P14598 (whole entry, looked up): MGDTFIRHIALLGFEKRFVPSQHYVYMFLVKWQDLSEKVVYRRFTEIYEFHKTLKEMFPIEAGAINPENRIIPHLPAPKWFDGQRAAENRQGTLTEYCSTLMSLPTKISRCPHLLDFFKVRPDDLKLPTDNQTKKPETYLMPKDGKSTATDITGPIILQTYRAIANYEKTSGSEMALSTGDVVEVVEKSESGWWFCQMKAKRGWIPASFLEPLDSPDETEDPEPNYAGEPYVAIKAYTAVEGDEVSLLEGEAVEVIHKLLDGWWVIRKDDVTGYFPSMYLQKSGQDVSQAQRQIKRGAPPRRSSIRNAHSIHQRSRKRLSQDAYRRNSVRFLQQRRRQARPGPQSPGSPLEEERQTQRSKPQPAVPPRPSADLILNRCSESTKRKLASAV
Sequence of UniProt P61073 (whole entry, looked up): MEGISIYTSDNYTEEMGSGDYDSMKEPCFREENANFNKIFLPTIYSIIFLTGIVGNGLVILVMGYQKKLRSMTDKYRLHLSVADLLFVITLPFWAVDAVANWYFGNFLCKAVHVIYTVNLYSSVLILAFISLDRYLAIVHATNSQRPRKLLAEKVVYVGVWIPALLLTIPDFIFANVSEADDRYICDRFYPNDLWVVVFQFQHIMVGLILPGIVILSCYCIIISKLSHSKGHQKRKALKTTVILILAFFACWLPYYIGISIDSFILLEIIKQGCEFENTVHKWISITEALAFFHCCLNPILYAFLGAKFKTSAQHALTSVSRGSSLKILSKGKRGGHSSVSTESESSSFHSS

| SMILES | target | assay | test system | setting | inhibition |
| --- | --- | --- | --- | --- | --- |
| COc1cc(Oc2c(O)c(Br)c(C)c(Br)c2OC)c(C(=O)O)c(C)c1O | Gag-Pol polyprotein, reverse transcriptase (gag-pol, Human immunodeficiency virus 1, UniProt P03366) | enzyme activity, inhibitor, PicoGreen fluorescence |  | 10 µM | 3.2 ± 0.1% |
| Oc1ccc(CCC(O)CC(O)CCc2ccc(O)cc2)cc1 (stereo not shown) | Dopamine beta-hydroxylase (Bos taurus, UniProt P15101) | enzyme activity, inhibitor |  | 50 µg/mL | 19.4% |
| COc1ccc(NC(=O)C2C(=O)C(c3ccccc3)c3ccc4c(c32)C(=O)c2ccccc2C4=O)cc1 (stereo not shown) | mushroom tyrosinase | enzyme activity, inhibitor, spectrophotometry |  | 25 µg/mL, added: L-DOPA substrate | 21.2 ± 0.23% |
| OC[C@H]1[C@@H](O)[C@@H](O)CN1Cc1ccc(I)cc1 | Alpha-mannosidase (Canavalia ensiformis, UniProt C0HJB3) | enzyme activity, inhibitor, absorbance |  | 2 mM | 9% |
| Cc1cc(O)cc2c1C(=O)c1c(cc3oc(=O)cc(-c4ccc(O)cc4)c3c1O)C2=O | mushroom tyrosinase | enzyme activity |  | 100 µg/mL, added: L-DOPA | 45.8 ± 0.52% |
| COc1cc(/C=C/C(=O)c2ccc3ccccc3c2)ccc1OCc1ccccc1 | Multidrug resistance-associated protein 1 (ABCC1, Homo sapiens, UniProt P33527) | calcein efflux, flow cytometry |  | 10 µM | no inhibition |
| COc1cc(/C=C/C(=O)CC(C)=O)ccc1O | Thioredoxin reductase 1, cytoplasmic (Txnrd1, Rattus norvegicus, UniProt O89049) | enzyme activity, inhibitor, absorbance |  | 100 µM, 30 min, pH 7.4 | 85 to 95% |
| CCc1noc(CN(CCN(Cc2nc(CC)no2)c2ccccc2)c2ccccc2)n1 | C-X-C chemokine receptor type 4 (CXCR4, Homo sapiens, UniProt P61073) | β-arrestin recruitment |  | 10 µM | > 50% |
| COc1cc(C(=O)NC2CCC(N3CCN(CC4CCC5(CCCC5)C4)CC3)CC2)c(F)cc1Nc1ncc2c(n1)N(C1CCCC1(F)F)CC(F)(F)C(=O)N2C (stereo not shown) | Ephrin type-B receptor 2 (EPHB2, Homo sapiens, UniProt P29323) | cell-free assay, TR-FRET |  | 10 µM | 0.68% |
| NCCCC[C@H](NC(=O)[C@@H]1CCCN1C(=O)[C@@H]1CSSCCC(=O)N[C@@H](Cc2ccc(O)cc2)C(=O)N[C@@H](Cc2ccccc2)C(=O)N[C@@H](CCCC(N)=O)C(=O)N[C@@H](CC(N)=O)C(=O)N1)C(=O)NCC(N)=O | AVPR1A | ligand displacement, radioligand |  | 10 µM | > 50% |
| O=C(O)c1ccc(Nc2c(-c3ccc(CON=Cc4ccc(N5CCCC5=O)cc4)cc3)nc3cc(-c4ccccc4)ccn23)cc1 | Tyrosyl-DNA phosphodiesterase 1 (TDP1, Homo sapiens, UniProt Q9NUW8) | enzyme activity, inhibitor |  | 100 µM | 91% |
| O=C(Nc1cccc(Cl)c1)c1c[nH]cn1 | MAPK14 | primary fragment screen |  | 1 mM, added: ATP 10 µM | 57.6% |
| CC(C)[C@@H]1NC(=O)[C@@H](NC(=O)[C@H](Cc2ccc(O)cc2)NC(=O)[C@@H]2CCCN2C(=O)[C@H](C)N)CSSC[C@@H](C(=O)O)NC(=O)[C@H](CO)NC(=O)[C@H](Cc2c[nH]c3ccccc23)NC(=O)[C@H](CO)NC(=O)CNC(=O)[C@H](CCCNC(=N)N)NC(=O)[C@H](Cc2ccc(O)cc2)NC1=O | Ephrin type-A receptor 4 (EPHA4, Homo sapiens, UniProt P54764) | protein-protein interaction, inhibitor, ELISA |  | 10 µM | ~80% |
| O=C1c2ccccc2C(=O)c2c1ccc1c2C(C(=O)NCc2ccccc2)C(=O)C1c1ccccc1 (stereo not shown) | mushroom tyrosinase | enzyme activity, inhibitor, spectrophotometry |  | 100 µg/mL, added: L-DOPA substrate | 50.6 ± 1.08% |
| Cc1cc2c(c(O)c1O)C(=O)c1c(O)cc(O)cc1C2=O | AVPR1A | intracellular calcium, antagonist | CHO | 12.5 µM, added: vasopressin 10 nM | > 50% |
| COc1ccc2[nH]cc(C[C@H](NC(=O)CCN)C(=O)N[C@@H](Cc3ccc(Cl)cc3)C(=O)N[C@@H](Cc3ccncc3)C(N)=O)c2c1 | EphA3 receptor | ephrin-A5 binding, ELISA |  | 500 µM | 25% |
| CC(C)c1csc2nc[nH]c(=O)c12 | MAPK14 | primary fragment screen |  | 1 mM, added: ATP 10 µM | 58.9% |

| SMILES | target | assay | test system | setting | inhibition |
| --- | --- | --- | --- | --- | --- |
| Cc1cc(O)c2c(c1)C(=O)c1cc3oc(=O)cc(C)c3c(O)c1C2=O | mushroom tyrosinase | enzyme activity |  | 50 µg/mL, added: L-DOPA | 30.1 ± 0.45% |
| CC(C)(C)CCN1C[C@@H]2[C@@H](CNC(=O)c3cc(Cl)cc(Cl)c3)[C@@H]2C1.Cl | Voltage-dependent L-type calcium channel subunit alpha-1F (Homo sapiens, UniProt O60840, M1004A) | calcium current, whole-cell patch clamp | HEK-293T transfected | 10 µM, M1004A mutant | ~50% |
| Cc1c2c(cc3oc(=O)cc(-c4ccccc4)c13)C(=O)c1cccc(O)c1C2=O | mushroom tyrosinase | enzyme activity |  | 25 µg/mL, added: L-DOPA | 52.84 ± 0.32% |
| COc1cc(OC)c(C(=O)CCc2ccccc2)c(O)c1O | Dipeptidyl peptidase 4 (DPP4, Sus scrofa, UniProt P22411) | enzyme activity, inhibitor, absorbance |  | 50 µg/mL | 23.7% |
| CC[C@H](C)[C@H](NC(=O)[C@@H]1CSSC[C@H](NC(=O)[C@H](Cc2ccc(O)cc2)NC(=O)CN)C(=O)N[C@@H](CO)C(=O)N[C@@H](CCCNC(=N)N)C(=O)N[C@@H](CO)C(=O)N[C@@H](Cc2ccc(O)cc2)C(=O)N2CCC[C@H]2C(=O)N2CCC[C@H]2C(=O)N[C@@H](C(C)C)C(=O)N1)C(=O)N1CCC[C@H]1C(=O)N[C@@H](CC(=O)O)C(=O)O | Mannan-binding lectin serine protease 1 (Homo sapiens, UniProt P48740) | enzyme activity, inhibitor |  | 15 µM, added: 10 nM MASP-1 | 31% |
| Cc1cc(O)c2c(c1)C(=O)c1cc3oc(=O)cc(-c4ccc(Cl)cc4)c3c(O)c1C2=O | mushroom tyrosinase | enzyme activity |  | 100 µg/mL, added: L-DOPA | 43.4 ± 0.48% |
| Cc1ccc2c(c1C)NC(=O)C2(O)CC(=O)c1ccc2c(c1)OCO2 (stereo not shown) | Uncharacterized protein (Trypanosoma brucei brucei, UniProt Q386Q8) | enzyme activity, inhibitor, coupled colorimetric | Trypanosoma brucei | 100 µM | 28% |
| CCn1c(SC(C)C(=O)Nc2cc(C)ccc2C)nnc1C1CCN(C(=O)Nc2ccccc2)CC1 (stereo not shown) | Seed linoleate 13S-lipoxygenase-1 | enzyme activity, inhibitor |  | 250 µM | 89.5% |
| Cc1cc(O)c2c(c1)C(=O)c1cc3oc(=O)cc(-c4ccc(O)cc4)c3c(O)c1C2=O | mushroom tyrosinase | enzyme activity |  | 50 µg/mL, added: L-DOPA | 26.5 ± 0.32% |
| CCn1c(SC(C)C(=O)Nc2ccccc2C)nnc1C1CCN(C(=O)Nc2ccccc2)CC1 (stereo not shown) | Seed linoleate 13S-lipoxygenase-1 | enzyme activity, inhibitor |  | 250 µM | 85.6% |
| CC(C)C[C@H](NC(=O)[C@H](CCC(N)=O)NC(=O)[C@H](CCCNC(=N)N)NC(=O)[C@H](CCCNC(=N)N)NC(=O)[C@@H](NC(=O)[C@H](CCCNC(=N)N)NC(=O)[C@@H](NC(=O)[C@H](CO)NC(=O)[C@@H](N)CS)[C@@H](C)O)C(C)C)C(N)=O | Neutrophil cytosol factor 1 (NCF1, Homo sapiens, UniProt P14598) | superoxide production, inhibitor, EPR | COS-Nox2 cell lysate | 10 µM | ~50% |
| COc1c2c(cc3oc(=O)cc(-c4ccc(O)cc4)c13)C(=O)c1cc(C)cc(O)c1C2=O | mushroom tyrosinase | enzyme activity |  | 50 µg/mL, added: L-DOPA | 44.58 ± 0.25% |
| Cc1ccccc1CN1CCN(C(=O)c2cccnc2)CC1 | MAPK14 | primary fragment screen |  | 1 mM, added: ATP 10 µM | 67% |
| COc1c2c(cc3oc(=O)cc(C)c13)C(=O)c1cc(C)cc(O)c1C2=O | mushroom tyrosinase | enzyme activity |  | 25 µg/mL, added: L-DOPA | 41 ± 0.62% |
| Cc1ccc(NC(=O)C2C(=O)C(c3ccccc3)c3ccc4c(c32)C(=O)c2ccccc2C4=O)cc1 (stereo not shown) | mushroom tyrosinase | enzyme activity, inhibitor, spectrophotometry |  | 100 µg/mL, added: L-DOPA substrate | 86.2 ± 1.52% |
| Cc1cc(O)cc2c1C(=O)c1c(cc3oc(=O)cc(C)c3c1O)C2=O | mushroom tyrosinase | enzyme activity |  | 100 µg/mL, added: L-DOPA | 50.6 ± 0.25% |
| Oc1cc(-c2ccccc2Cl)[nH]n1 | MAPK14 | primary fragment screen |  | 1 mM, added: ATP 10 µM | 19.4% |
